Experimental data of several laboratories.
Numbered parts are unrelated; each lists some results of a single study.

Set 1
Cell line: yeast with cyclin F-Cln2 chimera
Read-out: cell growth
Action: binder
Technique: competitive growth deep sequencing
Form: peptide
Concentration: concentration not given
Notes: peptide tiling library
Direction: direction not given
| Molecule | growth enrichment score |
| --- | --- |
| PARRRLRLSVDEVSSP | 4.24 |
| DTERAHSTLDEDLERW | -0.362 |
| RKLHFEDEVT | 3.49 |
| DSDSDSEGGAAGGEAD | 1.41 |
| SAVPLILPQAPSGPSY | 0.348 |
| SSEVARHLLFQSHM | 3.03 |
| GQLVIPLDELTLDTSF | 0.833 |
| TARRIFQEPTEPKTKA | 2.74 |
| SCCKRKLVVGNGPEGP | 1.01 |
| IVLICAKRSLCAAFSV | 1.01 |
| KRCATPVIIDEILPSK | -0.0794 |
| NARRSLNFGGSTGT | 3.99 |
| FREFEVEKQTAEETGL | 0.568 |
| VLLKRLQDVVSERANH | 0.301 |
| PLRKAKRARLCSSSSS | 0.737 |
| IPDRSTKPVVFSPT | -0.0998 |
| RRVLCFDS | 2.8 |

Set 2
Target: Histone acetyltransferase KAT6A, winged helix 1, GST fusion (KAT6A, Homo sapiens, UniProt Q92794, residues 1-85)
Technique: protein binding microarray
Form: double-stranded DNA, one strand shown
Medium: in vitro
Concentration: not given
Notes: 8-mer, flanks averaged, mean of 2 arrays, mostly near background
Relative to: not given
Direction: higher = stronger binding
Target sequence (chain): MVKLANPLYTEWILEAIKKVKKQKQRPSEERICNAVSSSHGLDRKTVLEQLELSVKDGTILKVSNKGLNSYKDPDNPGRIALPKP
| Sequence | E-score |
| --- | --- |
| AAGTCTTC | -0.233 |
| CATTATGA | -0.12 |
| GACGTACA | -0.12 |
| CGGGAAAA | 0.223 |
| ACACCCAT | -0.184 |
| GGACCGCA | 0.0876 |
| AACTCCCT | -0.108 |
| CTGCGGCA | 0.308 |
| CAGAGAAG | -0.111 |
| TTATGCAA | -0.221 |
| AATAACAG | -0.0256 |
| GGAGTCGA | -0.0793 |
| ACTTTTCT | -0.265 |
| GCTCGCCA | 0.102 |
| CGCAGAGA | 0.0512 |
| GCTGCGGA | 0.0824 |
| ACTGGAGA | -0.206 |
| AAAGGTTG | -0.133 |
| AGCAACTG | -0.111 |
| CCTCGGAC | 0.0995 |
| TAGAGGAA | -0.24 |
| CCCGAATA | 0.0224 |

Set 3
Target: Transcriptional repressor CTCF (CTCF, Homo sapiens, UniProt P49711, residues 1-727, full length assumed)
Chain of UniProt P49711 (whole entry, looked up): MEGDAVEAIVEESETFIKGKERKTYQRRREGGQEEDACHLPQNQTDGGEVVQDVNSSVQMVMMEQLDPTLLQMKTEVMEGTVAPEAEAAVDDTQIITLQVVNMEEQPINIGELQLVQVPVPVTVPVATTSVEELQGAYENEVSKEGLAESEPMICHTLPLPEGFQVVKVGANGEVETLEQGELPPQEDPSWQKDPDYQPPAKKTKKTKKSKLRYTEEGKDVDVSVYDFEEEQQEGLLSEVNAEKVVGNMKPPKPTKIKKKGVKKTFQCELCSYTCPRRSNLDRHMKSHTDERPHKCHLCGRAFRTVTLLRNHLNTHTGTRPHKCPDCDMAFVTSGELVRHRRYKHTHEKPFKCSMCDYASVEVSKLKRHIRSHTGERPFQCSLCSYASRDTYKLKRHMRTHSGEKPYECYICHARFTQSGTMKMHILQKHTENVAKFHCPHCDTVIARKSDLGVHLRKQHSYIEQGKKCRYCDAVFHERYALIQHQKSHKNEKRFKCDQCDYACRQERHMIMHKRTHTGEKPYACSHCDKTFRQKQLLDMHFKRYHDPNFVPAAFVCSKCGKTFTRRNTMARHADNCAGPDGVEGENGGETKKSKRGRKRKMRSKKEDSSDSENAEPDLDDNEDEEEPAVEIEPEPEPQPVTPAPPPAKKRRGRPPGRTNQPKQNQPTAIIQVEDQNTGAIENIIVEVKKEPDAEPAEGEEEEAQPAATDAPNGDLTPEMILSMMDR
Technique: protein-binding microarray
Form: double-stranded DNA, one strand shown
Medium: in vitro
Concentration: not given
Notes: k-mer, scored over probes, only values ≥0.25
Direction: higher = stronger binding
| Sequence | E-score |
| --- | --- |
| ATATCCCC | 0.282 |
| CCGATAGG | 0.286 |
| TAGCGCAA | 0.33 |
| ATTAACAC | 0.353 |
| ATTACGTA | 0.27 |
| AATATACA | 0.362 |
| TGCGCGCA | 0.385 |
| AAATAATA | 0.335 |
| GTATACAA | 0.28 |
| TATATACA | 0.28 |
| GTTACTCA | 0.293 |
| GATATTAA | 0.262 |
| ATATATAG | 0.335 |
| CCCCGCCC | 0.323 |
| ACCAATAT | 0.289 |
| TAGTATGA | 0.294 |
| ATAGTATG | 0.291 |
| ATTTGTTC | 0.332 |
| ATTATCAG | 0.254 |
| TAAAATGA | 0.287 |
| CATATATA | 0.316 |
| CGCCACCA | 0.317 |
| ACCTAGCG | 0.268 |
| CCTTATTA | 0.292 |
| AGAGAAAT | 0.251 |

Set 4
Target: Sal-like protein 4, full length isoform B (SALL4, Homo sapiens, UniProt Q9UJQ4-2, residues 1-616)
Technique: universal PBM
Form: double-stranded DNA, one strand shown
Medium: in vitro
Concentration: not given
Notes: 8-mer, flanks averaged, mean of replicates
Direction: higher = stronger binding
| Sequence | E-score |
| --- | --- |
| AGCCAGCC | -0.293 |
| ACGTAGGC | -0.115 |
| TCCTGCAA | 0.0493 |
| CAGCGTAC | -0.253 |
| ATAGATCA | 0.234 |
| CGGACTAA | -0.135 |
| ACTTCCGA | -0.102 |
| AACCGAAC | -0.165 |
| ACAGCCGG | -0.334 |
| CAGAAGCA | 0.0776 |
| CCTGTACG | -0.0821 |
| ATCTTCAA | 0.211 |
| CTACGCGA | -0.153 |
| GACTTACA | 0.0577 |
| CAAGACTC | -0.125 |
| AGTAACTC | -0.0662 |
| CCGTCTGA | -0.255 |
| ACGTTGTG | 0.0581 |
| CATTTCGG | 0.0372 |
| CGACGAAG | -0.108 |
| TCTAAAAA | 0.172 |
| AGTCTTGA | 0.023 |
| AAGCGCCG | -0.219 |
| ACACATCA | 0.0538 |
| TCTTCTCA | 0.00238 |

Repeated from above (set 3):
| Sequence | E-score |
| --- | --- |
| ACCAATAT | 0.289 |
| CATATATA | 0.316 |
| TAGTATGA | 0.294 |
| CCCCGCCC | 0.323 |
| ATATCCCC | 0.282 |
| ATTATCAG | 0.254 |
| CCGATAGG | 0.286 |
| GTTACTCA | 0.293 |
| GTATACAA | 0.28 |
| GATATTAA | 0.262 |
| TAGCGCAA | 0.33 |
| ATTACGTA | 0.27 |
| TAAAATGA | 0.287 |
| AGAGAAAT | 0.251 |
| AATATACA | 0.362 |
